Published values collected from several papers.
Each line is one published result; not all experiments were run side by side.
Target: Voltage-gated inwardly rectifying potassium channel KCNH2 (KCNH2, Homo sapiens, UniProt Q12809)
Chain of UniProt Q12809 (whole entry, looked up): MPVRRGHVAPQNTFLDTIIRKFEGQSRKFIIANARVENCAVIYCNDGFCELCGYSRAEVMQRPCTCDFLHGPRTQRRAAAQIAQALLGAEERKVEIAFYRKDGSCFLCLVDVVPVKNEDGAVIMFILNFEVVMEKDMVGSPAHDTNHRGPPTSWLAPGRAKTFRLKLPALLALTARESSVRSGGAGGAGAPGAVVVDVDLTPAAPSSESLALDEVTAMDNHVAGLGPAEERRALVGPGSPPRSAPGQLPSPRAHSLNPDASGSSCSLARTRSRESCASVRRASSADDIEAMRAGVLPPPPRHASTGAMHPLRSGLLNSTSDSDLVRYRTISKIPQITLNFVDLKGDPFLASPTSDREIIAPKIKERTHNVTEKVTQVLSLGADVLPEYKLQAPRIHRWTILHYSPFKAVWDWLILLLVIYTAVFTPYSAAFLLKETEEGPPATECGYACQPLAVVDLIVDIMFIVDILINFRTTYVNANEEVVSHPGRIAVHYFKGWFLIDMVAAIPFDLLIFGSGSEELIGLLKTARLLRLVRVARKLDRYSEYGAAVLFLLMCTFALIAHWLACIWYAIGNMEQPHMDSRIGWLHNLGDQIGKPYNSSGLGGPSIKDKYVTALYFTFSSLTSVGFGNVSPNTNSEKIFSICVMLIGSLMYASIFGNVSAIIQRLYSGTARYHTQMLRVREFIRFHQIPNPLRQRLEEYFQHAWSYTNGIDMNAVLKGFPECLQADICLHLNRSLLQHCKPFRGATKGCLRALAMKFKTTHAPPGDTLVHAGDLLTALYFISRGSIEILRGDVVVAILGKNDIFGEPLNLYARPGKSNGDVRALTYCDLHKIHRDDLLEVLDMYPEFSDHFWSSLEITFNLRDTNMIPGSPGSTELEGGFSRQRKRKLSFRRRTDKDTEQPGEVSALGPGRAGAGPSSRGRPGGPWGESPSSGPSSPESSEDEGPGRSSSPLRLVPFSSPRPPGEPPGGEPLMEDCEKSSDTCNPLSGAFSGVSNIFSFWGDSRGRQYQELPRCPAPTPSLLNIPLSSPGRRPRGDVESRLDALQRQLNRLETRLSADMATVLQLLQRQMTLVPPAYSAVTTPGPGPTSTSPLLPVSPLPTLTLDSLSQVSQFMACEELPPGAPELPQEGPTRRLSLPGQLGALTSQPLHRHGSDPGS

C[C@@H](O)[C@H](N)C(=O)N1CCC[C@H]1C(=O)N1CCC[C@H]1C(=O)N[C@H](C(N)=O)[C@@H](C)O
inhibition (radioligand binding, radioligand displacement; 30 µM): -6%

CS(=O)(=O)Nc1ncn(-c2cc(F)c(COc3ccc(OS(=O)(=O)F)cc3)c(F)c2)n1
IC50 (inhibitor): > 30000 nM

Cn1nccc1[C@]1(CNC(=O)c2ccc(F)c(F)c2-c2ccc(C(F)(F)F)cc2)NC(=O)NC1=O
IC50 (no inhibition up to value): > 10000 nM

O=C(Nc1cccnn1)N1CCC(=Cc2cccc(Oc3ccc(C(F)(F)F)cn3)c2)CC1
inhibition of binding (radioligand binding; 50 µM, human channel, added: [3H]astemizole): 87%

CN[C@]1(c2ccccc2Cl)CCCCC1=O
inhibition (radioligand binding, radioligand displacement; 30 µM): 2%

O=C(Nc1cnccc1Cl)N1CCN(Cc2ccc3c(c2)OC(F)(F)O3)CC1
inhibition of binding (radioligand binding; 10 µM, human channel, added: [3H]astemizole): 29%

Cn1c(=O)ccc2ccc(F)c(CCNC[C@H]3CN(c4cnc5c(n4)NC(=O)CO5)C(=O)O3)c21
IC50 (potassium channel activity, inhibitor; human cells): 56000 nM

Nc1ncc(-c2nc(N3CCOCC3)nc(N3CCOCC3)n2)c(C(F)F)n1
remaining binding (radioligand binding, antagonist ligand; membrane preparation; 10 µM, time not given): 116%

CCOc1ccc2cc(-c3nn(CC4CCN(C)CC4)c4ncnc(N)c34)ccc2c1
EC50 (thallium flux, inhibitor): 300 nM

CN(C(=O)n1cnc(-c2ccc[n+]([O-])c2)c1)C1CCCCC1
inhibition of binding (radioligand binding; 50 µM, human channel, added: [3H]astemizole): 11%

Brc1ccc2c(c1)C(c1ccccn1)=NCc1c(-c3cnco3)ncn1-2
inhibition (binding, radioligand binding; up to 100 mM): ≤ 50%

COc1ccc(CCC2CCCC(CCc3ccc(OC)cc3)N2C[C@@H](O)CO)cc1 (stereo in doubt)
IC50 (binding, radioligand displacement; added: [3H]dofetilide): ~800 nM

Cc1ccc2cc(N3CCC4(O)C(=O)c5cc(C)c(C)cc5N=C34)ccc2n1 (centres unmarked)
hERG inhibition (patch clamp; CHO; 10 µM): negative

CCOc1ccc2cc(-c3nn(CC4CCNCC4)c4ncnc(N)c34)ccc2c1
EC50 (thallium flux, inhibitor): 1660 nM

Some of these lines once more:
CCOc1ccc2cc(-c3nn(CC4CCN(C)CC4)c4ncnc(N)c34)ccc2c1
EC50 (thallium flux, inhibitor): 300 nM
